Results of several laboratories.
A part holds a random share of what one study measured.

Set 1
Target: RNA binding protein fox-1 homolog 2, RRM domain, GST-SBP tag (RBFOX2, Homo sapiens, UniProt O43251-10, residues 100-194)
Method: RNA Bind-n-Seq
Molecule type: RNA
Sample: in vitro
Concentration: 365 nM
Setting: natural RNA segment, single round, ends assumed
Baseline: no-protein control
Direction: higher = stronger binding
All sequences stand within: GGGAGUUCUACAGUCCGACGAUC … UGGAAUUCUCGGGUGCCAA
Target sequence (chain): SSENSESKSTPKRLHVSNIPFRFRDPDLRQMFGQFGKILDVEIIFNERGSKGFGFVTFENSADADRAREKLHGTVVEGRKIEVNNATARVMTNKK
Oligonucleotide	RBNS enrichment (R)
AGAUGCAGUUUGGAGAGUCAGAUCUUUCUCCUUGAAUAUCUUUCGAUAAACAACAAGGUGGUGUGAUCUUAAUAUAUUUGAAAAAAACUUCAUUCUCGUGAGUCAUUUAA	0.316
GGUUACCCGAGUGAGCGGCUGCACAGUGCUCACUGAGUCCCCUCAUCUCCAGCAGUCUUGGUGCUGCUGUGCCCCGGGCUCUGGUCUGGCCGGGUGUGAGGGAAGUCAGA	0.433
CCACUUAUUUGCAUUCUCCUUGUGGAUUUUUUGUCACCUAAGGAAAUGCAUUUGAUGAGUGCUGGAAACUUCUUAAGUGCUUUACAGUUUGUUUUCAUUGUUUGCAGCGG	0.377
CUGUGUGAAGCUUUCAAGAGCUUGGUACUUCCCAGGGCUACCGGCAGUCCUCUGUAGUCCAGAGAGGUGAGAUUAGAUCUUCUUGGUUCCCUGUGAGGUUUCAGGCACUA	0.3
AACCCAUGUGUGACAGUCAUGUGCACACAUGGGCGGGGGCUUUUAAAAACCUUUCAGGAAGUCAAUGAUUUCUGUGAUUGAUAUAAUUCUAAGGUGUCUGAGAGCAGGUA	0.693
UGGGAGACCAGGACAGAUGAGAAGGAGCAGAAGAGCCCUGUGCCCAGAAGACCCAACUGGUGCCAAGGAAUCCCAGCAUGGACAGGCAGGGACCUGUUUCCCAAGAAGAG	1.81
AGGAAAGUUAGGAGAUAUUCAUCUUAAGAGAUAUCCUAUUUGGCAGUCACAUGUUACACUUGAGCAACAAUUGUCUAGGCUAGAAAUAUAGAACCACACAAUAUUUAUCA	0.527
AACAGCUUUACUUCAAAAGCAUGUGCCUCUGGUAAAUUAUCCAUCACUUUUGUUUUAAAGUGGUCCCUCCAAGAAUAAUGUGGCAUACACAGUGGGUUUGGUUGUAAGGC	0.939

Set 2
Target: Centromere-binding protein 1, full length, N-terminal tag (CBF1, Saccharomyces cerevisiae, UniProt P17106, residues 1-351)
Sequence of UniProt P17106 (whole entry, looked up): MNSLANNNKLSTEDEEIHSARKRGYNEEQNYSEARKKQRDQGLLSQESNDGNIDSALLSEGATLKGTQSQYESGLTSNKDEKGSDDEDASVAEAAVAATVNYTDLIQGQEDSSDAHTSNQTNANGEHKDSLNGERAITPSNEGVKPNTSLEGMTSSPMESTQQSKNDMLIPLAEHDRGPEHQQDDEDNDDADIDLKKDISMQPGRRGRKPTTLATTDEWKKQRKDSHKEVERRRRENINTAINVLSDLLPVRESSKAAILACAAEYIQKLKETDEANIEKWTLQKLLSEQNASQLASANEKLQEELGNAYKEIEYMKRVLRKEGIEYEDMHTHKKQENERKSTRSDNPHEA
Method: protein-binding microarray
Molecule type: double-stranded DNA, one strand shown
Sample: in vitro
Concentration: 0.8 µM
Setting: whole 60-bp probe, no competitor
Direction: higher = stronger binding
All sequences stand within: … GTCTTGATTCGCTTGACGCTGCTG
Oligonucleotide	fluorescence intensity [a.u.]
CCTAACTACTATAAGCACGACCTATAGCTTCGTACA	507
CTAGTCACTTTTCATCACGTGTGTATTTAAGTATTC	7730
GAAAGTAATAAGCTTGACGTGATGTACTTAGTCTAG	561
GAAGCGCGCCAACCTCACGTTTGCATTCTTGAATAG	520
CTAGCAGCTGGCTCATTCGTGCTGTACTCTCTTTTC	537
CTAACTTGAAAGAATCTCACCTGGAGAATGGGTTTC	498
GAAGTGCGGAAATGCATCACCGCCTAGCGACTCTAG	486
CTAGTTCTCAAACGTCACGCTATGAACAGTACATTC	712
CTACAGGCCATTCGCCACGTTTTAAAACGAAGTTTC	522
CCTAACTACTATAACGTGGTTAGATAGCTTCGTACA	619
GAAAAACAAATATTGCACGTGATACAAAATGTATAG	19500
CTAGCTTCTTTATGCACCGTGGAGTAATTACCGTTC	560
CTACGAATTGAAGTTCTGCTGATCTTGAACAATTTC	552
CTAGGCAACTAGAATCACACGTCAGCGTCATGCTTC	570
CTAGACAGTGGCAGTGTCACCACCACCAATGATTTC	511
GAACTCCACCATATTAACGTGTTATAGCTAATGTAG	547
CTAAAAGTCATCTGGCACGTTTAATTATCAGAGTTC	676
GAAACAAGCAGACACGTGGAGAAAAGCCAGGAGTAG	3500

Set 3
Target: RING finger protein unkempt homolog, zinc fingers 1-6, GST-SBP tag (UNK, Homo sapiens, UniProt Q9C0B0, residues 30-357)
Sequence of UniProt Q9C0B0 (30-357, looked up): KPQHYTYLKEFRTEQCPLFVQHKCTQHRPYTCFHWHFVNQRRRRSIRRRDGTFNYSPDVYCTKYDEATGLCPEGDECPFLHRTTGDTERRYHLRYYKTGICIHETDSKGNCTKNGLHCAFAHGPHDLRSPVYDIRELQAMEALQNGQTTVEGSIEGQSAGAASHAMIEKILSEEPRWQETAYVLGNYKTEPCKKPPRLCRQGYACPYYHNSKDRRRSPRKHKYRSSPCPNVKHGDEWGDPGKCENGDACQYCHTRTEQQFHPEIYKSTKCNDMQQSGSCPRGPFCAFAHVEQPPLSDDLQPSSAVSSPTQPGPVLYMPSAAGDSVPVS
Method: RNA Bind-n-Seq
Molecule type: RNA
Sample: in vitro
Concentration: not given
Setting: RNA with constant flanks, human and mouse sites, ends assumed
Baseline: input RNA pool
Direction: higher = stronger binding
All sequences stand within: GGGAGUUCUACAGUCCGACGAUC … CAACAGAGGAUUGAGCAUCA
Oligonucleotide	bound/input enrichment
GAUGACUGUCUUUUGAAGGUUUGGUAUAAUGUAGAAAACUGGCGGACAGCUGUUACUUCUCCAGAUGGAAGUUCAGAAAAACAAUCCCAAGGAGAAAUUGACUUUUCUUUUGUGUAUCUG	0.18 ratio
ACUUGUAAUUUCUUUCUGCUUAGAAUCUAAAGAUGUGUUUAGAACCUCUUGUUUAAAAAUAAUAGACUGCUUAUCAUAAAAUCACAUCUCACACAUUUGAGGCAGUGGUCAAACAGGUAA	1.39 ratio
AGGAUGGGGUUUGUUAAAGUUGUUAAGAAUAAGGCCUACUUUAAGAGAUACCAAGUGAAAUUUAGAAGACGACGAGAGGGUAAAACUGAUUAUUAUGCUCGGAAACGCUUGGUGAUACAA	0.548 ratio
GGUGUCUCGUGGCCCCGUGAACUCACCGCUCACCCUCCUGAACCCCCCCCCCCCGCCUUUUUUUAAAAUUCACCCCCAUCCACAGUUGUCAGUUGUGAAGAGGGGCCAGAUGACACCCUA	0.661 ratio
GCACAGCAGUUGUACAGCAGGGGUCCUCCUGCCCCUCAUAUUGUGGGAUCCACUCUAGGAUCUUUCCAAGGUGCUGCAUCGUCAGCAUCCCAUUUGCAUACGAGUGCCUCCCAACCAUAC	0.171 ratio
CUAACUCAAAUUAUGCAUGCAUUGAGUUCUUGUGUGCUUUUUCUGUUCUAAAAUUAAUGGGCUUUAUGGGUUUUGUUUUUGUAUGUUUUUAUGUCUGUUAUAUUUUGAGGUAGGGGAUUG	4.2 ratio
CUGAAACCAGCCAAUGUUUUCCUGGAUGGCAAGCAAAACGUCAAGCUUGGAGACUUUGGGCUAGCUAGAAUAUUAAACCAUGACACGAGUUUUGCAAAAACAUUUGUUGGCACACCUUAU	2.56 ratio
AUCAAUGAACAUGACUAUGCAAAAGCAGCCUUUUGUUUAGAGGAACUAAUGAUGACUAAUCCACACAACCACUUAUACUGUCAGCAGUAUGCUGAAGUUAAGUAUACCCAAGGUGGACUU	0.181 ratio

Set 4
Target: Histone acetyltransferase KAT6A, both winged helices, GST fusion (KAT6A, Homo sapiens, UniProt Q92794, residues 1-181)
Method: protein binding microarray
Molecule type: double-stranded DNA, one strand shown
Sample: in vitro
Concentration: not given
Setting: 8-mer, flanks averaged, mean of 2 arrays, mostly near background
Baseline: not given
Direction: higher = stronger binding
Residues (chain): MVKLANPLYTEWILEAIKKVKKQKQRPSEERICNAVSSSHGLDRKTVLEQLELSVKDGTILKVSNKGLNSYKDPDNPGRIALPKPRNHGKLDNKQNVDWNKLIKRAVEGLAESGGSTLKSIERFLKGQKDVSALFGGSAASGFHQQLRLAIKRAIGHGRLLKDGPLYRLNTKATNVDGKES
Oligonucleotide	E-score
CAGACAAG	-0.129
ACACTACG	0.169
GGGGGATA	-0.162
ACTCGCGC	0.327
GCGAGCCA	-0.0573
CGTTGACA	-0.0116
GACTGCCC	0.102
GAACTTGC	-0.112
AGTGGCTA	-0.135
AAAACGAC	-0.0399
AAAACTCG	-0.0193
GAGTGGGA	-0.17
ATAGTCCC	0.00162
AAGACCGC	0.207
CATGAGCG	0.233
ACAACATA	-0.0104
GGCGCCGA	0.352
CCGAGCAA	-0.00561
ACCATTTA	-0.0848
AACAAATT	-0.126
GAAGTGAA	-0.0313
CAATGAAG	-0.139
CTCGGTGC	-0.0213
